Measured values collected from several papers.
Parts stem from different laboratories: compare values within a part only. Changes are numbered by the printed parent chain.

Series 1
Target: Prothrombin, mature alpha-thrombin (F2, Homo sapiens, UniProt P00734)
Method: aptamer microarray, sandwich
Molecule type: DNA with 2'F-ANA
Medium: in vitro
Tested at: 200 nM
Notes: whole 15-mer aptamer, many near background
Together with: Cy3 exosite-II aptamer, 400 nM
Direction: higher = stronger binding
Strand: GGTTGGTGTGGTTGG
| Modification | mean fluorescence intensity [a.u.] |
| --- | --- |
| 2'F-ANA at 1 2 3 6 8 9 10 11 12 | 75.7 |
| 2'F-ANA at 2 3 4 5 8 9 10 11 12 13 14 15 | 58.8 |
| 2'F-ANA at 4 8 9 10 13 | 93.7 |
| 2'F-ANA at 1 3 8 9 11 12 | 537 |
| 2'F-ANA at 4 7 8 9 10 12 13 14 | 69.4 |
| 2'F-ANA at 2 5 11 12 14 | 50.4 |
| 2'F-ANA at 1 3 4 5 10 12 13 | 47.5 |
| 2'F-ANA at 2 3 4 5 6 7 8 9 11 13 14 15 | 52.6 |
| 2'F-ANA at 2 4 8 9 11 12 | 489 |
| 2'F-ANA at 5 7 8 10 | 48.1 |
| 2'F-ANA at 2 3 11 | 813 |
| 2'F-ANA at 4 6 7 9 11 13 14 15 | 67.1 |
| 2'F-ANA at 3 4 11 15 | 620 |
| 2'F-ANA at 1 3 4 7 8 9 10 12 13 14 15 | 86.2 |
| 2'F-ANA at 1 2 3 4 5 6 7 10 11 14 | 46.8 |
| 2'F-ANA at 1 4 5 8 9 10 | 55.8 |
| 2'F-ANA at 1 2 7 8 9 11 13 15 | 228 |
| 2'F-ANA at 1 3 4 5 9 11 13 14 | 48.2 |
| 2'F-ANA at 2 5 7 10 11 12 14 15 | 45 |
| 2'F-ANA at 3 4 6 7 8 10 13 14 | 170 |
| 2'F-ANA at 1 4 5 7 8 9 10 13 15 | 52.6 |
| 2'F-ANA at 4 5 6 9 11 13 15 | 52.3 |
| 2'F-ANA at 1 2 3 4 10 14 15 | 50.5 |
| 2'F-ANA at 2 4 5 12 | 178 |
| 2'F-ANA at 4 5 6 9 10 12 14 15 | 47.3 |

Series 2
Target: Histone acetyltransferase KAT6A, both winged helices, GST fusion (KAT6A, Homo sapiens, UniProt Q92794, residues 1-181)
Method: protein binding microarray
Molecule type: double-stranded DNA, one strand shown
Medium: in vitro
Tested at: not given
Notes: 8-mer, flanks averaged, mean of 2 arrays, mostly near background
Reference: not given
Direction: higher = stronger binding
Residues (chain): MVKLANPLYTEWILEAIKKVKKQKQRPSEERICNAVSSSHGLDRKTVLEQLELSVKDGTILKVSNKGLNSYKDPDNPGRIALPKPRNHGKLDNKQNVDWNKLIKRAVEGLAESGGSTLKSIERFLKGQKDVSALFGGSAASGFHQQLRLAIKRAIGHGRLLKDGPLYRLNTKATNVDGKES
| Strand | E-score |
| --- | --- |
| AACATCGC | 0.158 |
| CTCTGATA | -0.106 |
| CAAATCGA | -0.177 |
| TCGTGCCA | -0.0766 |
| AGTGTACA | -0.00792 |
| ACACGACT | 0.0327 |
| CTGCCAGA | -0.196 |
| ACTTTCAA | -0.0652 |
| GACCCCAC | -0.204 |
| ACGTTCCG | 0.134 |
| TCTCCAAA | -0.185 |
| ATCCCATC | -0.158 |
| CCCCACAG | -0.231 |
| AAAATCTG | -0.104 |
| CTCAACAC | -0.00134 |
| TGATATCA | -0.234 |
| GCTTATCC | 0.0916 |
| AGCGAAAT | -0.129 |
| CTCTGAAG | -0.102 |
| TAGAATGA | -0.131 |
| CACATCGG | 0.123 |
| AAGAGGTC | -0.139 |
| ATTTTGGA | -0.134 |
| ATGACCAT | -0.107 |
| CGGCGGCA | 0.352 |

Series 3
Target: CCNB3, cyclin fold, Cln2 fusion (human)
Method: yeast growth competition, sequencing
Medium: yeast
Notes: weak parent motif
Reference: not given
Direction: higher = stronger binding
Starting sequence: CDC6 docking peptide (human); TLKGRRLVFDNQL; partner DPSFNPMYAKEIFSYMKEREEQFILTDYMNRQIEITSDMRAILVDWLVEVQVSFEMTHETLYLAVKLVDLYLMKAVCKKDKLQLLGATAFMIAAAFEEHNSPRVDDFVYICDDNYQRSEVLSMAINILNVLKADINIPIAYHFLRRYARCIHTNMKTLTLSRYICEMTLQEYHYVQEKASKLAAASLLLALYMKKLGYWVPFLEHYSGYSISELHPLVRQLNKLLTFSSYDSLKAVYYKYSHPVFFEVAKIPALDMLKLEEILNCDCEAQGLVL
| Variant | normalised enrichment score |
| --- | --- |
| TLKQRRLVFDNQL [G4Q] | 0.369 |
| TLKGRRLVNDNQL [F9N] | -0.121 |
| TLKGHRLVFDNQL [R5H] | -0.243 |
| TLKGPRLVFDNQL [R5P] | 0.086 |
| TLKGRRLVFDNDL [Q12D] | 0.201 |
| TLKGRRLVFDNQV [L13V] | 0.198 |
| TLKGRYLVFDNQL [R6Y] | 0.255 |
| TLKGRRLVMDNQL [F9M] | 0.238 |
| TLKGGRLVFDNQL [R5G] | 0.177 |
| TLKGRRLVFDNFL [Q12F] | 1.01 |
| TLKGRRLVFDNEL [Q12E] | -0.0146 |
| FLKGRRLVFDNQL [T1F] | -0.0336 |
| VLKGRRLVFDNQL [T1V] | 0.433 |
| TLKGIRLVFDNQL [R5I] | -0.244 |
| TLKGRRLVFDSQL [N11S] | -0.145 |
| TLKGRRLVFDNKL [Q12K] | 0.0548 |
| TLKGRRLQFDNQL [V8Q] | -0.195 |
| THKGRRLVFDNQL [L2H] | -0.244 |
| TLRGRRLVFDNQL [K3R] | 0.303 |
| TLKGRKLVFDNQL [R6K] | 0.102 |
| TLKGRRLIFDNQL [V8I] | 0.0527 |
| TNKGRRLVFDNQL [L2N] | -0.204 |

Series 4
Target: RNA binding protein fox-1 homolog 2, RRM domain, GST-SBP tag (RBFOX2, Homo sapiens, UniProt O43251-10, residues 100-194)
Method: RNA Bind-n-Seq
Molecule type: RNA
Medium: in vitro
Tested at: 365 nM
Notes: natural RNA segment, single round, ends assumed
Reference: no-protein control
Direction: higher = stronger binding
Shared flanks, not repeated: GGGAGUUCUACAGUCCGACGAUC … UGGAAUUCUCGGGUGCCAA
Residues (chain): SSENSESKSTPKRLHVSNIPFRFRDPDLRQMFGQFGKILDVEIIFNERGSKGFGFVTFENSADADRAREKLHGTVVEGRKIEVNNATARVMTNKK
| Strand | RBNS enrichment (R) |
| --- | --- |
| GCCUCUGCUCCAGGCAAGGCAGCUGGCUCUGUCUGGGGCAUCGGCCUGGGGCUUGGGUGCCACGUGCUGAGAUUGCAUAGUCAAAACAGCCAUUUUUGCCAACAAUAGCU | 0.27 |
| CAGGGUUGGAGUGGGGGUUGGUCCCUCAGGGGCUCAAGUUCCUUCUCUCAGCUGGGACAGGAGGUGGCUGCUCAGUCCUAGAGUAGCUCUAUGGGUGAAACCGGCUCUAG | 0.239 |
| UGUGACGAUCACAGACCUUCGAUAAAUCUCAAAUCAUGAACCAGGGAGAUGGAUCACUGGGUAACAGCACUUGUCACCAAGCCCAACAGCCCAGGCUCAGUUCUUGGGAC | 0.251 |
| AGGGUGAAGGGGAGAGGAGGAGCUAGUAUUAGCCAAAGUGAUAGAAAACCUGAUUUUCAUCUCGUACUACCAAGCUUUACAACAUUGAAAGUGGCCUAGUAACUCUGAGU | 0.555 |
| CUUCUGCUGUGGGACGUGGGCCAGGCACCCUCAUUCUCUGGGCAUCUCUGCUGCAAGUGGACAAGAGUAUUUCAGAGAUCACUGAAGCCUGAGUCCAUGCACCUGCCCCA | 0.348 |
| AAACUUAUGCUCUAAACAUUUCUAGUUCCCCCAAACAACCUAGAGGCCUUGGGACUUCACAUCCCCCAGCACACAAGCCUCACCACCCCCUGCCAUCCCCCCUCCAUUGC | 0.387 |
| CUGCUUAUUAAUCUGUAUUGUACACAUGAUGAAAUGAAGCAGAAGCUGGGAGUCGGCCUUUCCUCUAGUAACCACCACAUGGCUCAGCAUCUGUGCCAAACAUAGGCGCU | 0.288 |
| UGUGCUUGGUGAAAUCAGCAAGAAACCAACCAUAUAAAACAGUGUGUGCCGGGCUCUGACUGAGAAACUGAACAAUGGCAGGCGCUUCAUCUGGGCAGCCAUUUUUCUUC | 0.474 |

A few entries again (series 2):
| Strand | E-score |
| --- | --- |
| TCTCCAAA | -0.185 |
| TCGTGCCA | -0.0766 |
| GACCCCAC | -0.204 |
| ACGTTCCG | 0.134 |
